Published values collected from several papers.
Lines come from different studies, so protocols differ. “And” joins repeats or separate records; there may be more than shown. ± marks the error that the study gave.
Urea transporter 1: Urea transporter 1 (Homo sapiens, UniProt Q13336)
Sequence of UniProt Q13336 (whole entry, looked up): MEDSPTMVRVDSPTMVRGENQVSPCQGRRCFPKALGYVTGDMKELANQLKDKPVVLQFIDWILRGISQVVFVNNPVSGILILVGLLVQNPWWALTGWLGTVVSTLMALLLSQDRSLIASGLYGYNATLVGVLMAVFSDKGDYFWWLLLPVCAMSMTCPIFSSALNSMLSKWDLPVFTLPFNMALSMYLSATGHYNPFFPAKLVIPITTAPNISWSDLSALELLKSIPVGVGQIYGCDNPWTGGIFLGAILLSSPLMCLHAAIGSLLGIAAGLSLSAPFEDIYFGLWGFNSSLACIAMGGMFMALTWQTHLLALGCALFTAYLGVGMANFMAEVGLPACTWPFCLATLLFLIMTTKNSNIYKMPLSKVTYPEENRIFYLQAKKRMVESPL
Vesicular acetylcholine transporter: Vesicular acetylcholine transporter (Rattus norvegicus, UniProt Q62666)
Sequence of UniProt Q62666 (whole entry, looked up): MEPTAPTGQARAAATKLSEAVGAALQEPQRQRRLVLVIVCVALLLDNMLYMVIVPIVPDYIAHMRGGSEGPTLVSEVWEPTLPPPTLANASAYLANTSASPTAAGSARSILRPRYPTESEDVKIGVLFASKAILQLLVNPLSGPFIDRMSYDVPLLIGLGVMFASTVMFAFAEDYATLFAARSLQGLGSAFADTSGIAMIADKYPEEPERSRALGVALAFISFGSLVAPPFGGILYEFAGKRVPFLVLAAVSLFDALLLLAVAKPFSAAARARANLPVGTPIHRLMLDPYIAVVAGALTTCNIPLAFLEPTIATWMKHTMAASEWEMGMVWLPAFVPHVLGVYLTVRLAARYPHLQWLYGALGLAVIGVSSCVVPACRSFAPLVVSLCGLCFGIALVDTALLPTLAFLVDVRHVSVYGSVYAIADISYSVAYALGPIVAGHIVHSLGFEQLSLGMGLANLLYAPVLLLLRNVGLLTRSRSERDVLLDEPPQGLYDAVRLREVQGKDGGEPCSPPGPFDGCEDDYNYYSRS
Gabrg2/Gabra1 α1+/γ2− interface: Gabrg2/Gabra1, α1+/γ2− interface (Rattus norvegicus, UniProt P18508+P62813)
Sequence of UniProt P18508 (whole entry, looked up): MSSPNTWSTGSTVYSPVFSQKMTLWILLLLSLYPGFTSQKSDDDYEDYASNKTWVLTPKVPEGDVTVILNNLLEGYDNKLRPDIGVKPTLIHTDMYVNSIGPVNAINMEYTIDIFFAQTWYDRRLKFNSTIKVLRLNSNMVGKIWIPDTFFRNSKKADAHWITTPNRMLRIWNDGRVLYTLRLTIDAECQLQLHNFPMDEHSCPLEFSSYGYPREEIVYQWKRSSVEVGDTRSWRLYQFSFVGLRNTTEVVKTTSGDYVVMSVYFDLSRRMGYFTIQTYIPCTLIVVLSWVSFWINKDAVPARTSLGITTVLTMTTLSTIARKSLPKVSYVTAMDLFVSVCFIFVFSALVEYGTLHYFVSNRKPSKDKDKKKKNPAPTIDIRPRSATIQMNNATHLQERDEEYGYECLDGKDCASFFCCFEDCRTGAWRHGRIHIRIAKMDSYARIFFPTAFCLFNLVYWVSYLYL
Sequence of UniProt P62813 (whole entry, looked up): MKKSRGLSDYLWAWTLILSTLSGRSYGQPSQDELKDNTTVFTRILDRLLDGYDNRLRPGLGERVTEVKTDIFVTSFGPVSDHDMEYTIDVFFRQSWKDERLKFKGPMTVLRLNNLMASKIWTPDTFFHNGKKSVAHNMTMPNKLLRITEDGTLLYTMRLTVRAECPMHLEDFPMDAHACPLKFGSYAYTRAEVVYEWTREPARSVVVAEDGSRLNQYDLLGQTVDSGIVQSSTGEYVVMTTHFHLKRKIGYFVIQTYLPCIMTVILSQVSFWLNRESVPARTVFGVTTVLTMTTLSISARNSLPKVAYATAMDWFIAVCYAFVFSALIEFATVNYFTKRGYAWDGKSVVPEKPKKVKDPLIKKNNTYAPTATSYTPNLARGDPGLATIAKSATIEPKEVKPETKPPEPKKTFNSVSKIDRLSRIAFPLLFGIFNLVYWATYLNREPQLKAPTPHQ
DNA polymerase III PolC V741I: DNA polymerase III PolC (Clostridioides difficile, UniProt Q18BG8, V741I)
Glutamate receptor ionotropic, kainate 3: Glutamate receptor ionotropic, kainate 3 (Rattus norvegicus, UniProt P42264)
Sequence of UniProt Q9NWT6 (whole entry, unmodified, looked up): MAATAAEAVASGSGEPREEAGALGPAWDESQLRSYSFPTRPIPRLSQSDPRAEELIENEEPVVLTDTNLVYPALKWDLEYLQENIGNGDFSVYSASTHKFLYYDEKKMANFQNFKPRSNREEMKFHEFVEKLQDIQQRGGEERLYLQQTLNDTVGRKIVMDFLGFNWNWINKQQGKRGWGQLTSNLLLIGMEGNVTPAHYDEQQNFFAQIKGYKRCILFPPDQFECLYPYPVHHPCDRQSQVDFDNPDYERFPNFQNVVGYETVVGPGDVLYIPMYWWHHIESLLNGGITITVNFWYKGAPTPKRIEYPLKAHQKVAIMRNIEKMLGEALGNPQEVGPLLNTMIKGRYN
Sequence of UniProt P0AF12 (whole entry, looked up): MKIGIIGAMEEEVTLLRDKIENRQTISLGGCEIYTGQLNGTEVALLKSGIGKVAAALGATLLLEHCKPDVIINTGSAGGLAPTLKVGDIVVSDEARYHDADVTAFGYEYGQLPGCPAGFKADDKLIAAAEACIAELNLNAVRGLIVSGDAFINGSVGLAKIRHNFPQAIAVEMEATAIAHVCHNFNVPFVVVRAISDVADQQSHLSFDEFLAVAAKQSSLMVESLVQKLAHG
Sequence of UniProt P42264 (whole entry, looked up): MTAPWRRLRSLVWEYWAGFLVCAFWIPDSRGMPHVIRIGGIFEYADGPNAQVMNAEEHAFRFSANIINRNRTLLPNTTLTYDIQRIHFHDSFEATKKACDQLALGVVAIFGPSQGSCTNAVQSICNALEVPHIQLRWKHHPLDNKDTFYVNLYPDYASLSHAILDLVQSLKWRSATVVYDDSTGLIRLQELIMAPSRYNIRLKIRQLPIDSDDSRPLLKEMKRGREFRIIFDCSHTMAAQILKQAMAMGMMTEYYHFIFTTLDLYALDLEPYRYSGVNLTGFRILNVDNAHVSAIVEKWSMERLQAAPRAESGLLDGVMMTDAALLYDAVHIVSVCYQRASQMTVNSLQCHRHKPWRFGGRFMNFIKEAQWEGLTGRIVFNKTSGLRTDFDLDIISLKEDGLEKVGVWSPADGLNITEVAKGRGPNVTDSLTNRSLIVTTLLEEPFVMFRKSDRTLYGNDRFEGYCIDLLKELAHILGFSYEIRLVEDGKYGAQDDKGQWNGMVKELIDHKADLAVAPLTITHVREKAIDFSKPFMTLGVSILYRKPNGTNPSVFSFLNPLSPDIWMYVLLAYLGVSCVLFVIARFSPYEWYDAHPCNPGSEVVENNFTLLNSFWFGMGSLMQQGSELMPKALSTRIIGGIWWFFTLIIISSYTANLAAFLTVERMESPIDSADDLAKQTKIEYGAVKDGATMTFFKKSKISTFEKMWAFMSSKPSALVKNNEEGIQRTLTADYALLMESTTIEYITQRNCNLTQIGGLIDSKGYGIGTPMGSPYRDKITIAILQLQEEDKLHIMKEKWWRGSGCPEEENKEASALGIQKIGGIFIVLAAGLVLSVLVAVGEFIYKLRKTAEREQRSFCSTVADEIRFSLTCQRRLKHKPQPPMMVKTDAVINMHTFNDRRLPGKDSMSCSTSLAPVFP
Sequence of UniProt P10636 (whole entry, looked up): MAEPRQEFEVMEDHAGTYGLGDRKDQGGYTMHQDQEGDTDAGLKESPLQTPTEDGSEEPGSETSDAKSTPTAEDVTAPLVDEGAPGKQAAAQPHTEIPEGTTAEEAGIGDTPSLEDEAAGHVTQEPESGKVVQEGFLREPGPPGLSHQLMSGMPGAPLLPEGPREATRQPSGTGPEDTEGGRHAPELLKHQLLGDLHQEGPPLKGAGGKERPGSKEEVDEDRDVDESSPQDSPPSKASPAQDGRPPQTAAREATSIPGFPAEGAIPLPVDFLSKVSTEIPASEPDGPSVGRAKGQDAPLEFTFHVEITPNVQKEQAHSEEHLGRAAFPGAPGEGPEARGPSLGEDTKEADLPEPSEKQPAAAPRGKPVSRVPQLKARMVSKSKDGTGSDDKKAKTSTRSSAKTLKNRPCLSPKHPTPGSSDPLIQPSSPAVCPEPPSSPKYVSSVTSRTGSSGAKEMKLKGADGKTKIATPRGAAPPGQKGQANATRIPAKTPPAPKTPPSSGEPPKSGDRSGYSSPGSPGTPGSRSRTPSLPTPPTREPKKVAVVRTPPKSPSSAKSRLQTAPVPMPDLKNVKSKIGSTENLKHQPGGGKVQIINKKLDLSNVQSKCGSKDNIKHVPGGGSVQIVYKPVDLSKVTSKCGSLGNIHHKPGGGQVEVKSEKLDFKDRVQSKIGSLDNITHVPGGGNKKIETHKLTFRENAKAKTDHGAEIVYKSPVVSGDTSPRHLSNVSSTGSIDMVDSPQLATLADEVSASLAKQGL
Sequence of UniProt P35348 (whole entry, looked up): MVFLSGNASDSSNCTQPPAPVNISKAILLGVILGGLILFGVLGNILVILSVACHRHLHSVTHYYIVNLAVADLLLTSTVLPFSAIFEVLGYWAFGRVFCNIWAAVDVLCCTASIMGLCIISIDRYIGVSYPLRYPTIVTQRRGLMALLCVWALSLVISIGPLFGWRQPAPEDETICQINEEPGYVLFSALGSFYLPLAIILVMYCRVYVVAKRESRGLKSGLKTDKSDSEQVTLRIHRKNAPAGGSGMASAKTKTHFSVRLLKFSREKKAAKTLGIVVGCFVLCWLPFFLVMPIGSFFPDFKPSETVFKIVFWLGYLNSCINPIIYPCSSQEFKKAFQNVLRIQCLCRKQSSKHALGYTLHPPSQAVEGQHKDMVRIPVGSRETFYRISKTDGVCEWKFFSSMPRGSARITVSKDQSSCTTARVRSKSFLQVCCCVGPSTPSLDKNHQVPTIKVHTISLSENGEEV
Sequence of UniProt P47898 (whole entry, looked up): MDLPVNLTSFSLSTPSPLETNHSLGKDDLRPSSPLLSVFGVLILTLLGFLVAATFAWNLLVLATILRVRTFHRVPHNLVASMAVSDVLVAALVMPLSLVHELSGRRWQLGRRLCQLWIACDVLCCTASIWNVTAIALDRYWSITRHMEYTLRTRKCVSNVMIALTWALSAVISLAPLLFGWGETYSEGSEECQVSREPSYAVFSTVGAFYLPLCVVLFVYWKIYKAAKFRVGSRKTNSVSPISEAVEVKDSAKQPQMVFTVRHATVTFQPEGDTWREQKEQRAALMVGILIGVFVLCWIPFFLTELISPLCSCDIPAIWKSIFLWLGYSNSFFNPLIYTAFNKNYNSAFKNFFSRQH

`NC(=O)CI` gave a Ki of 12000 µM (Urea transporter 1; urea transport inhibition; added: thiourea).
`CCCCCCSC[C@H]1CN(Cc2c[nH]c3c(N)ncnc23)C[C@@H]1O` gave a Ki of 1.86e-05 µM and 1.9e-05 µM (5'-methylthioadenosine/S-adenosylhomocysteine nucleosidase (mtnN, Escherichia coli, UniProt P0AF12)).
With `O=C(NO)c1ccc(CN2CCN(c3cccc4cc(S(=O)(=O)c5cccc(F)c5)cnc34)CC2)c(F)c1` the Ki was 0.0007 µM (5-hydroxytryptamine receptor 6 (HTR6, Homo sapiens, UniProt P50406); binding).
With `Cc1ccc2c(c1)C1(C=C2)CCN(C2Cc3ccccc3CC2O)CC1` (racemic) the Ki was 0.0072 ± 0.0012 µM (Vesicular acetylcholine transporter; radioligand binding; PC12 expressing VAChT; added: [3H]vesamicol).
`COc1cccc(-n2nc3c4cc(Cl)ccc4[nH]cc-3c2=O)c1` has a Ki of 0.00017 ± 7e-06 µM (Gabrg2/Gabra1 α1+/γ2− interface; rat cerebellar membranes; added: [3H]flunitrazepam).
`CCc1cc(Nc2cc(=O)n(CCCCO)c(=O)[nH]2)ccc1C` gave a Ki of 0.37 µM (DNA polymerase III PolC V741I; enzyme activity, inhibitor; truncated, dGTP omitted, 4% DMSO).
The Ki of `C[C@@H](NC(=O)c1ccc(C#Cc2cccc(F)c2)cn1)C(C)(C)O` is reported as 0.0118 ± 0.0001 µM (Metabotropic glutamate receptor 5, MPEP allosteric site (Grm5, Rattus norvegicus, UniProt P31424); [3H]methoxy-PEPy displacement; MPEP allosteric site).
For `[O]=[V]([OH])([OH])[OH]`, the Ki was 54 µM (Uncharacterized protein (Trypanosoma brucei, UniProt Q38AT7)).
The Ki of `O=C(O)CCC(=O)C(=O)O` is reported as 200 µM and ~300 µM (Hypoxia-inducible factor 1-alpha inhibitor (HIF1AN, Homo sapiens, UniProt Q9NWT6, Q147A); cosubstrate; pH 7.00, 37.0 °C, mutant Q147A, added: CTAD peptide 100 µM).
`COc1cc2c3c(c1OC)-c1c(cccc1OC)CC3N(C)CC2` (racemic) gave a Ki of 0.809 µM (Alpha-1A adrenergic receptor (ADRA1A, Homo sapiens, UniProt P35348); radioligand binding).
With `COCC1OC2CC(CC(N)C(=O)O)(C(=O)O)OC2C(O)C1O` (centres unmarked) the Ki was 14.5 µM (Glutamate receptor ionotropic, kainate 3; [3H]kainate displacement; HEK-293T/17 membranes).
`O=Cc1ccccc1` gave a Ki of over 50 µM (uncharacterized protein (Bradysia odoriphaga, UniProt A0A2S0X9G4); binding, competitive fluorescence displacement).
With `OC1Cc2ccccc2CC1N1CCC2(CC1)C(Br)=Cc1ccccc12` (racemic) the Ki was 0.025 ± 0.002 µM (Vesicular acetylcholine transporter; radioligand binding; PC12 expressing VAChT; added: [3H]vesamicol).
For `COc1ccc(N=Nc2ccc3[nH]cc(CCN(C)C)c3c2)cc1`, the Ki was 0.951 µM (5-hydroxytryptamine receptor 5A (HTR5A, Homo sapiens, UniProt P47898); binding, radioligand binding; ambient light).
With `CC(C)C[C@H](NC(=O)CNC(=O)[C@H](C)NC(=O)c1ccc(S(=O)(=O)NC[C@H]2O[C@@H](C)[C@@H](O)[C@@H](O)[C@@H]2O)cc1)C(=O)N[C@@H](C)C(=O)N1CCN(c2cc3c(cc2F)c(=O)c(C(=O)O)cn3C2CC2)CC1` the Ki was 0.36 ± 0.12 µM (fucose-binding lectin LecB (Pseudomonas aeruginosa, UniProt A0A0H2ZE85); binding, competitive fluorescence polarization).
`FCCN1CC=C(c2ccc3c(n2)[nH]c2ccncc23)CC1` has a Ki of 0.0279 µM (Microtubule-associated protein tau, PSP brain aggregates (MAPT, Homo sapiens, UniProt P10636); binding; PSP human brain tissue; added: [3H]PI-2620).
For `COc1ccccc1-n1nc2c3cc(Cl)ccc3[nH]cc-2c1=O`, the Ki was 0.0078 ± 0.0006 µM (Gabrg2/Gabra1 α1+/γ2− interface; rat cerebellar membranes; added: [3H]flunitrazepam).
With `O[C@@H]1CCCC[C@H]1N1CCC(c2ccccc2)CC1` (racemic) the Ki was 0.028 ± 0.003 µM (Vesicular acetylcholine transporter; binding, radioligand displacement; PC12 expressing VAChT; added: [3H]-labelled compound).
For `N#CCC(N)=O`, the Ki was 2000 µM (Urea transporter 1; urea transport inhibition; added: thiourea).
The Ki of `Cn1cnc2c(=O)[nH]c(NCc3ccc(Cl)c(Cl)c3)nc21` is reported as about 100 µM (DNA polymerase III PolC V741I; enzyme activity, inhibitor; truncated, dGTP omitted, 4% DMSO).
For `NC(CC1(C(=O)O)CC2OC(CO)C(O)C(N)C2O1)C(=O)O` (centres unmarked), the Ki was 0.397 µM (Glutamate receptor ionotropic, kainate 3; binding, [3H]kainate displacement; HEK293T/17 membranes; added: [3H]kainate).
`N[C@@H](Cc1cc(I)c(O)c(I)c1)C(=O)O` gave a Ki of 0.5 µM (Cytochrome P450 2E1 (CYP2E1, Homo sapiens, UniProt P05181); p-nitrophenol hydroxylation, inhibitor; baculosomes; 10 min, with additive 1 µM).
With `NC(=O)c1ccc[n+]([C@@H]2O[C@H](COP(=O)(O)OP(=O)(O)OC[C@H]3O[C@@H](n4cnc5c(N)ncnc54)[C@H](OP(=O)(O)O)[C@@H]3O)[C@@H](O)[C@H]2O)c1` the Ki was under 100 µM (chnB (Rhodococcus sp. HI-31, UniProt C0STX7, L145D)).
`COc1cc2c(cc1OC)-c1c(OC)c(OC)cc3c1[C@H](C2)N(C)CC3` has a Ki of 1.16 µM (5-hydroxytryptamine receptor 2A (HTR2A, Homo sapiens, UniProt P28223); binding; secondary).
`NC(=S)Nc1ccc([N+](=O)[O-])cc1` gave a Ki of 30 µM (Urea transporter 1; urea transport inhibition; added: thiourea).
For `OC1Cc2ccccc2CC1N1CCC2(C=Cc3cc(F)ccc32)CC1` (racemic), the Ki was 0.018 ± 0.006 µM (Vesicular acetylcholine transporter; radioligand binding; PC12 expressing VAChT; added: [3H]vesamicol).
`CCc1cc(Nc2cc(=O)[nH]c(=O)[nH]2)ccc1C` gave a Ki of 1.5 µM (DNA polymerase III PolC V741I; enzyme activity, inhibitor; truncated, dGTP omitted, 4% DMSO).
For `NC(=O)C(Cl)Cl`, the Ki was 15000 µM (Urea transporter 1; urea transport inhibition; added: thiourea).
For `CC[C@@]1(O)C[C@H](O[C@H]2C[C@H](N(C)C)[C@H](O[C@H]3C[C@H](O)[C@H](O[C@H]4CCC(=O)[C@H](C)O4)[C@H](C)O3)[C@H](C)O2)c2c(cc3c(c2O)C(=O)c2c(O)cccc2C3=O)[C@H]1C(=O)OC`, the Ki was 35.6 ± 2.56 µM (Cytochrome P450 2J2 (CYP2J2, Homo sapiens, UniProt P51589); competitive fluorescence polarization; phosphate buffer, cholate; 2 min, pH 7.4, added: ebastine 60 µM).
